Experimental data gathered from unrelated publications.
Parts stem from different laboratories: compare values within a part only. Changes are numbered by the printed parent chain.

Sample 1 — method: universal PBM; form: double-stranded DNA, one strand shown; matrix: in vitro; tested at: not given; direction: higher = stronger binding
Target: Sal-like protein 4, full length isoform B (SALL4, Homo sapiens, UniProt Q9UJQ4-2, residues 1-616)
Setting: 8-mer, flanks averaged, mean of replicates
Residues (chain): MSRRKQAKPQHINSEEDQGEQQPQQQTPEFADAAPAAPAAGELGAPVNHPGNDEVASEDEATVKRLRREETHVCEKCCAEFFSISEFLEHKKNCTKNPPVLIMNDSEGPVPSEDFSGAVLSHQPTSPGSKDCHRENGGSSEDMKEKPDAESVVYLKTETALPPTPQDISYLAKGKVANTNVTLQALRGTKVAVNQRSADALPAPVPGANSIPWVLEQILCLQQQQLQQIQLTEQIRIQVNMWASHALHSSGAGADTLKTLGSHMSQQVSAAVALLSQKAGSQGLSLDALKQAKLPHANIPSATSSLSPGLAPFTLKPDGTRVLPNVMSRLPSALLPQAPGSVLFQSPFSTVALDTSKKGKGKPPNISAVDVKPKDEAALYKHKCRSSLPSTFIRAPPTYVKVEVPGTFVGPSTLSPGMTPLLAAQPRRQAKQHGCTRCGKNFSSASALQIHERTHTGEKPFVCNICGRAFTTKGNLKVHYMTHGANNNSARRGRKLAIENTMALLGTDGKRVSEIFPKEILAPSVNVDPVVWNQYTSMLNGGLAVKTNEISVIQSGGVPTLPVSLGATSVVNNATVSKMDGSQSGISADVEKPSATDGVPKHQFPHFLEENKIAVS
Sequence	E-score
ATTGGTTA	0.196
CCCAGCAC	-0.347
ATCCTTTA	0.183
AAAGAGTC	-0.108
GCGGGCCA	-0.261
CACTCGCA	-0.184
GCGATTTA	0.106
CCCTATCA	-0.0292
CTGTAACA	0.089
AATACACC	0.16
GGATAATA	0.344
ACTGGTGG	-0.207
AGACGTGC	-0.0403
CCAAATCA	0.0584

Sample 2 — target: CCNE1, cyclin fold, Cln2 fusion (human); method: yeast growth competition, sequencing; matrix: yeast; setting: weak parent motif; relative to: not given; direction: higher = stronger binding
Starting sequence: CDC6 docking peptide (human); TLKGRRLVFDNQL
Substitution	normalised enrichment score
TLKGRRLVFENQL [D10E]	-0.31
HLKGRRLVFDNQL [T1H]	0.547
TLKGRRLVFFNQL [D10F]	0.453
TLKNRRLVFDNQL [G4N]	-0.289
TLKGRRLVADNQL [F9A]	0.0761
TLKGRRQVFDNQL [L7Q]	0.615
TLKGRRLVFDNQY [L13Y]	0.456

Sample 3 — method: Sort-seq; refers to: YFP reporter; matrix: E. coli; setting: PhoQ-PhoP variant library; with: 10 µM Mg2+; relative to: high Mg2+ state; direction: higher = stronger signaling
Molecule: PhoQ, residues 284 288 289 292 302 303 SSLVEF
target	fold induction
PhoP, residues 12 14 15 18 19 VHTVL (Escherichia coli, UniProt P23836)	19.1
PhoP, residues 12 14 15 18 19 ICWRQ (Escherichia coli, UniProt P23836)	10.8
PhoP, residues 12 14 15 18 19 TQCLL (Escherichia coli, UniProt P23836)	8.34

Sample 4 — method: protein binding microarray; form: double-stranded DNA, one strand shown; matrix: in vitro; tested at: not given; relative to: not given; direction: higher = stronger binding
Target: Histone acetyltransferase KAT6A, winged helix 1, GST fusion (KAT6A, Homo sapiens, UniProt Q92794, residues 1-85)
Setting: 8-mer, flanks averaged, mean of 2 arrays, mostly near background
Target sequence (chain): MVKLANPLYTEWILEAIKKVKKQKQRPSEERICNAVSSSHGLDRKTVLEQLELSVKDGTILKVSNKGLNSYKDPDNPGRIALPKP
Sequence	E-score
ACTTGCCT	-0.239
GCGACCCC	0.186
GCATGATA	-0.224
GCTACAAC	-0.112
AACGGATT	0.129
GATCTATA	-0.0978
CGACCGAC	0.191
GTATACTA	-0.0961
CACCGCTG	0.149
CGCAGCAG	0.0889
CTTAGCCC	0.0338
ATGATAAT	-0.0954
GGATAAAA	-0.0794
ATGATTCC	0.0396
AAAATTAA	-0.042
ATTATGCC	0.00506
CTGCAACA	0.0158
TACCTCTA	-0.176
